{"data": "Experimental data pooled from the literature", "note": "A part holds a random share of what one study measured. “And” joins repeats or separate records; there may be more than shown.", "UniProt P45984, sequence (whole entry, looked up)": "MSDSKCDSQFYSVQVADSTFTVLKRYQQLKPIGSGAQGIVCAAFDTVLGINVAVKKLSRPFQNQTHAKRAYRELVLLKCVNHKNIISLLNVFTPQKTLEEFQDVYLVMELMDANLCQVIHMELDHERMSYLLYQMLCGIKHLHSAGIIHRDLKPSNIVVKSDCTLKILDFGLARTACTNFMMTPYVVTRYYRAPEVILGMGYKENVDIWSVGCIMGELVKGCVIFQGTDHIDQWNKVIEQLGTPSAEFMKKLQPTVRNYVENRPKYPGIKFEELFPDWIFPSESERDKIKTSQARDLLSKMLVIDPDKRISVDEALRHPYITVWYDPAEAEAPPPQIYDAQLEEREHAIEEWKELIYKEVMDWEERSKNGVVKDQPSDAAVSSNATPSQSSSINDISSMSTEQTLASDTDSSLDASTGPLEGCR", "UniProt P22607, sequence (whole entry, looked up)": "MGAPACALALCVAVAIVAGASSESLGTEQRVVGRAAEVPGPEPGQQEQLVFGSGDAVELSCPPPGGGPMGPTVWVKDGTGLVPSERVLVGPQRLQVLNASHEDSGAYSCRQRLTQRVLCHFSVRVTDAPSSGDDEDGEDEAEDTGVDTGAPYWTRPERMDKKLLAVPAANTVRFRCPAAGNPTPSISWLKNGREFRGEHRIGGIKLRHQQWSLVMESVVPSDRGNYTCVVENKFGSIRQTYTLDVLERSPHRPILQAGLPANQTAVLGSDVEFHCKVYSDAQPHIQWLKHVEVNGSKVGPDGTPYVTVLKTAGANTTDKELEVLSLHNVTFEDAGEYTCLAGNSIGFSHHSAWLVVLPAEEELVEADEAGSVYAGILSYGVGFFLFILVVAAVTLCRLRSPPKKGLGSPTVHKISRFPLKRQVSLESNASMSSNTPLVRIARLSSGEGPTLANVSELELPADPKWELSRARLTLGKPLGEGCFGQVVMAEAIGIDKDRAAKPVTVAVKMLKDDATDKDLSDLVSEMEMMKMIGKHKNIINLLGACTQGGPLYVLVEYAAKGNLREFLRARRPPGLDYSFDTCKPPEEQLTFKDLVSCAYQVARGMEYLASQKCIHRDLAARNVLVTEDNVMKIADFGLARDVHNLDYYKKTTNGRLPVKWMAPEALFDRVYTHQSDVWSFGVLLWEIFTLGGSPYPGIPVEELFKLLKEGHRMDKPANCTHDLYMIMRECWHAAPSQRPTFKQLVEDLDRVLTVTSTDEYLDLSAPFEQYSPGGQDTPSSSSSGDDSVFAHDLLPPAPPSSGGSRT", "UniProt P23443, sequence (whole entry, looked up)": "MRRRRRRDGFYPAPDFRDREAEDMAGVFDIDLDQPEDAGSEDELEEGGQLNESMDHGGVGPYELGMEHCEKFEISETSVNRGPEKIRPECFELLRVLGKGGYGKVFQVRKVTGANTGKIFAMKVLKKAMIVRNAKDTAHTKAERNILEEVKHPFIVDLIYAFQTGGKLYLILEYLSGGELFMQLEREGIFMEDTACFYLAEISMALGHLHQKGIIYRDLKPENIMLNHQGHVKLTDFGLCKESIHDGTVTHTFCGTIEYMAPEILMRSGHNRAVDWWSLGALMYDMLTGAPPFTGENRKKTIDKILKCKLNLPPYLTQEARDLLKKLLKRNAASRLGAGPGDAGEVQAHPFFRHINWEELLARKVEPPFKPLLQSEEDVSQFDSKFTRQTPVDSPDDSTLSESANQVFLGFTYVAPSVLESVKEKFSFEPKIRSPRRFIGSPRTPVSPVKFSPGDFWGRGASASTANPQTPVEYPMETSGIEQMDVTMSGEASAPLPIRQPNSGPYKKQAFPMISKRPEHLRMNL", "UniProt O00444, sequence (whole entry, looked up)": "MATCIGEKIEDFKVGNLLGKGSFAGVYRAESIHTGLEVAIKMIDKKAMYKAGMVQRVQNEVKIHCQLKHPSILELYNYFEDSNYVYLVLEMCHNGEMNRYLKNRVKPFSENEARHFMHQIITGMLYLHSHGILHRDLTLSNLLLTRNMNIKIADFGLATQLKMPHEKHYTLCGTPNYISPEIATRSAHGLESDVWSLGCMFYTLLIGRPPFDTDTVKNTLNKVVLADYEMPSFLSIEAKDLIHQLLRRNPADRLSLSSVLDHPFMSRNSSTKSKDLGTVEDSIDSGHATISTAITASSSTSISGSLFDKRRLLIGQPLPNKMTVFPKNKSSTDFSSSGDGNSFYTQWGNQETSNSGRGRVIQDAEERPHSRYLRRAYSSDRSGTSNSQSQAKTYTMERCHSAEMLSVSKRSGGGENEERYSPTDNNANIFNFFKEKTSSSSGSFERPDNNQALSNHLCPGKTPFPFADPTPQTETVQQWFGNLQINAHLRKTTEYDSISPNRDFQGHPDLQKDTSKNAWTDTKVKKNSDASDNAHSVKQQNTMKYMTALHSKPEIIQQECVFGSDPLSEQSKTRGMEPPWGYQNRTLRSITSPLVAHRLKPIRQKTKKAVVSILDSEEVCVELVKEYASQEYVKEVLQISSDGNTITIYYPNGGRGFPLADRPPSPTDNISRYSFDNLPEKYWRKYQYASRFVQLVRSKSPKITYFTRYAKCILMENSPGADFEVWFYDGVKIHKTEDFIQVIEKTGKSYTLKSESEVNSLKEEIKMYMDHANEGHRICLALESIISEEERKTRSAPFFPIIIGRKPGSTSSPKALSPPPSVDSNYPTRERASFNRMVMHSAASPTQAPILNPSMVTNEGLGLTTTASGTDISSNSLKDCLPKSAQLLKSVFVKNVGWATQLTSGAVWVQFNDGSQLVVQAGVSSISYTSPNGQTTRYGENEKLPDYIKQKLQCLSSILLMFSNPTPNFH", "UniProt O75460, sequence (whole entry, looked up)": "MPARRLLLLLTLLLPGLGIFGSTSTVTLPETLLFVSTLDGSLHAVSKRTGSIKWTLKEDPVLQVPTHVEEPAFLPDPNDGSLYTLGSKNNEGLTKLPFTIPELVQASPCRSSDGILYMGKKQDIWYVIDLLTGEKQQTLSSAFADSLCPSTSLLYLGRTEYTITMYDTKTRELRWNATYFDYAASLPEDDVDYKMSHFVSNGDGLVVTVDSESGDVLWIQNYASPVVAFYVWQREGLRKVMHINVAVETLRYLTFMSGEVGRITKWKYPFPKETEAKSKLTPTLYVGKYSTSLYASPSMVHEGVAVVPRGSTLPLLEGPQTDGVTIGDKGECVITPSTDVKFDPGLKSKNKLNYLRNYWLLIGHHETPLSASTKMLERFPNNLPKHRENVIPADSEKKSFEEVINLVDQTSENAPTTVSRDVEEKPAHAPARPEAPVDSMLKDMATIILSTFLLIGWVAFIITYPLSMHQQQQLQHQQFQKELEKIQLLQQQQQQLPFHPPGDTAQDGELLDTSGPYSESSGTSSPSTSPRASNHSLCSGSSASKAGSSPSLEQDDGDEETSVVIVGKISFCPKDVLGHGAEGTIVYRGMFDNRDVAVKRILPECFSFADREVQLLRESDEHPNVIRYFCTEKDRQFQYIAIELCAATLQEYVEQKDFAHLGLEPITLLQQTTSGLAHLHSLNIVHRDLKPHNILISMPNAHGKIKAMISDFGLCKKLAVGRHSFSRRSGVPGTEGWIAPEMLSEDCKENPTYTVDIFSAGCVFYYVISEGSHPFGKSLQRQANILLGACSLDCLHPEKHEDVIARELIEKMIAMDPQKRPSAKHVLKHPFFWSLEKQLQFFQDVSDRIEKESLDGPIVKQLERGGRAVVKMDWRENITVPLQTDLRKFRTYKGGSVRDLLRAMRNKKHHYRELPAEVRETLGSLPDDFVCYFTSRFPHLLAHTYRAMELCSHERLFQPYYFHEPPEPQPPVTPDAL", "UniProt Q9BVS4, sequence (whole entry, looked up)": "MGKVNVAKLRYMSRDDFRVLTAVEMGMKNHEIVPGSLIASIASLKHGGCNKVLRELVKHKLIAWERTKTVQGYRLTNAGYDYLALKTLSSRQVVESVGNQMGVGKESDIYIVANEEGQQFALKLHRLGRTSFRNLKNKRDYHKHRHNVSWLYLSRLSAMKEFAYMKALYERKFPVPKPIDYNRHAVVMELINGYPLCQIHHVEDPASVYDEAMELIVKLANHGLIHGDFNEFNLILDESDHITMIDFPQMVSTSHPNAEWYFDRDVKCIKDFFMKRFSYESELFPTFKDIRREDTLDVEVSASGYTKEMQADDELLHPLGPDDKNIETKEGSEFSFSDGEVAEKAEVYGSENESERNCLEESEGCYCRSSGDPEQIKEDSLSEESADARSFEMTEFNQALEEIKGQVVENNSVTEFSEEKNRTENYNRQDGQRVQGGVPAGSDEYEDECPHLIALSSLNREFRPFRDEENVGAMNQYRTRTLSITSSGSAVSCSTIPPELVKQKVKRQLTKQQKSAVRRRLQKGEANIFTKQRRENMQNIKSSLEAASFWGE", "UniProt P11802, sequence (whole entry, looked up)": "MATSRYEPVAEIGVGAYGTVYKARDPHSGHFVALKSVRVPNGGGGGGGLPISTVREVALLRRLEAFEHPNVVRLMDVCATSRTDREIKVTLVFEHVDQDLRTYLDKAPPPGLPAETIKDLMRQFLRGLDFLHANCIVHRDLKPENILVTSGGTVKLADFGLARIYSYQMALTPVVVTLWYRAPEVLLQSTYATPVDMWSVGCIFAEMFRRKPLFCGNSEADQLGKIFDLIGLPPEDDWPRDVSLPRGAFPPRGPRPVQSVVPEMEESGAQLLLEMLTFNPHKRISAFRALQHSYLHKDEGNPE"}
{"data": "Sample 1", "target": "MAP kinase-activated protein kinase 5 (MAPKAPK5, Homo sapiens, UniProt Q8IW41)", "observed": "enzyme activity", "mode": "inhibitor", "tested at": "0.5 µM", "reference": "control", "Construct (Q8IW41 1-473)": "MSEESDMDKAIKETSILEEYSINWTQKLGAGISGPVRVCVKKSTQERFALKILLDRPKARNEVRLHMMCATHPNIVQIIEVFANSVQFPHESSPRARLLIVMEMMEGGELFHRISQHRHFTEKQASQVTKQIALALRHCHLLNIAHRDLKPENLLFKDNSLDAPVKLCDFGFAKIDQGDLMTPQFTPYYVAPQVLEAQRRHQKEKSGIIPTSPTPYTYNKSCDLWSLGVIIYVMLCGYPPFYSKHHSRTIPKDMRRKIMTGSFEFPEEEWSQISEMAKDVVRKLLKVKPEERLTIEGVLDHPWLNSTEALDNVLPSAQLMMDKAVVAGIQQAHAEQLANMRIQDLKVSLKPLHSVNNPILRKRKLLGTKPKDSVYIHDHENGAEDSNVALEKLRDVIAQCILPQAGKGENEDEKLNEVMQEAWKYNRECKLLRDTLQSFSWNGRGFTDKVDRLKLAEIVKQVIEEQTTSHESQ"}
{"Compound": "O=c1cc(N2CCOCC2)oc2c1ccc1ccccc12", "remaining activity": "98.4%"}
{"Compound": "CCOc1cc2ncnc(Nc3cccc(Br)c3)c2cc1OCC", "remaining activity": "71.6%"}
{"Compound": "CCC(=O)Nc1ccc2ncnc(Nc3cccc(Br)c3)c2c1", "remaining activity": "105%"}
{"Compound": "Cn1cnc2cc3c(Nc4cccc(Br)c4)ncnc3cc21", "remaining activity": "130%"}
{"Compound": "CC(=O)O/N=C1/C(c2c(O)[nH]c3cc(Br)ccc23)=Nc2ccccc21", "remaining activity": "94.9%"}
{"Compound": "COc1ccc(-c2cnc3c(-c4ccsc4)cnn3c2)cc1", "remaining activity": "90.7%"}
{"Compound": "CCN1/C(=C/C(C)=O)Sc2ccc(OC)cc21", "remaining activity": "112%"}
{"Compound": "Cc1ccc(NC(=O)c2ccc(CN3CCN(C)CC3)cc2)cc1Nc1nccc(-c2cccnc2)n1", "remaining activity": "90.8%"}
{"Compound": "C[S+]([O-])c1ccc(-c2nc(-c3ccncc3)c(-c3ccc(F)cc3)[nH]2)cc1 (stereo not shown)", "remaining activity": "92.5%"}
{"Compound": "Nc1[nH]nc2nnc(-c3c(-c4ccccc4)nn4ccccc34)cc12", "remaining activity": "97.7%"}
{"Compound": "Cc1nc(Nc2ncc(C(=O)Nc3c(C)cccc3Cl)s2)cc(N2CCN(CCO)CC2)n1", "remaining activity": "94.9%"}
{"Compound": "CN(C)CCCn1cc(C2=C(c3c[nH]c4ccccc34)C(=O)NC2=O)c2ccccc21", "remaining activity": "93.7%"}
{"Compound": "COc1cc2ncnc(Nc3ccc(OCc4ccccc4)cc3)c2cc1OC", "remaining activity": "100%"}
{"Compound": "Cn1cc(/C=C2\\C(=O)Nc3ccc(S(N)(=O)=O)cc32)c2ccccc21", "remaining activity": "88.3%"}
{"Compound": "CC(C)[C@H](CO)Nc1nc(Nc2cccc(Cl)c2)c2ncn(C(C)C)c2n1", "remaining activity": "97.6%"}
{"Compound": "COc1cc2ncc(-c3ccccc3)nc2cc1OC", "remaining activity": "88.1%"}
{"Compound": "O=C(Nc1ccc(Cl)cc1)c1ccccc1NCc1ccncc1", "remaining activity": "88.7%"}
{"Compound": "CS(=O)(=O)CCNCc1ccc(-c2ccc3ncnc(Nc4ccc(OCc5cccc(F)c5)c(Cl)c4)c3c2)o1", "remaining activity": "92.8%"}
{"Compound": "COc1cc2ncnc(N3CCN(C(=O)Nc4ccc(Oc5ccccc5)cc4)CC3)c2cc1OC", "remaining activity": "118%"}
{"data": "Sample 2", "Compound": "CS(=O)(=O)N1CCCC(NC(=O)[C@H](CCC2CCCCC2)NC(=O)c2ccc(CNC(=O)c3cnc4ccccn34)cc2)C1 (stereo partly shown)", "observed": "cell-free assay", "method": "competition with immobilised ligand", "tested at": "0.1 µM"}
{"target": "EGFR (Homo sapiens, UniProt P00533, T790M)", "remaining binding": "100%"}
{"target": "TTK (Homo sapiens, UniProt P33981)", "remaining binding": "91%"}
{"target": "CAMK1 (Homo sapiens, UniProt Q14012)", "remaining binding": "100%"}
{"target": "FGFR3 (Homo sapiens, UniProt P22607)", "remaining binding": "100%"}
{"target": "EGFR (Homo sapiens, UniProt P00533, A750P/del747-749)", "remaining binding": "90%"}
{"target": "FLT3 (Homo sapiens, UniProt P36888, D835V/ITD)", "remaining binding": "86%"}
{"target": "PRKCH (Homo sapiens, UniProt P24723)", "remaining binding": "95%"}
{"target": "MAPK9 (Homo sapiens, UniProt P45984)", "remaining binding": "90%"}
{"target": "MAPK3 (Homo sapiens, UniProt P27361)", "remaining binding": "67%"}
{"target": "RIOK2 (Homo sapiens, UniProt Q9BVS4)", "remaining binding": "100%"}
{"target": "MAP3K4 (Homo sapiens, UniProt Q9Y6R4)", "remaining binding": "91%"}
{"target": "RIOK3 (Homo sapiens, UniProt O14730)", "remaining binding": "97%"}
{"target": "RPS6KB1 (Homo sapiens, UniProt P23443)", "remaining binding": "100%"}
{"target": "EGFR (Homo sapiens, UniProt P00533, L861Q)", "remaining binding": "100%"}
{"target": "CAMK2G (Homo sapiens, UniProt Q13555)", "remaining binding": "86%"}
{"target": "Cyclin-dependent kinase 4, with cyclin D3 (CDK4, Homo sapiens, UniProt P11802)", "remaining binding": "100%"}
{"target": "PLK4 (Homo sapiens, UniProt O00444)", "remaining binding": "100%"}
{"target": "LRRK2 (Homo sapiens, UniProt Q5S007)", "remaining binding": "64%"}
{"target": "STK32C (Homo sapiens, UniProt Q86UX6)", "remaining binding": "85%"}
{"target": "EGFR (Homo sapiens, UniProt P00533, G719C)", "remaining binding": "100%"}
{"target": "TESK1 (Homo sapiens, UniProt Q15569)", "remaining binding": "93%"}
{"target": "ERN1 (Homo sapiens, UniProt O75460)", "remaining binding": "100%"}
{"data": "Sample 3", "cell line": "mouse MPNST tumor cells", "method": "high-content immunofluorescence imaging", "item": "nuclear SOX9", "tested at": "10 µM", "time": "12 h", "notes": "mean of 2 replicates", "reference": "DMSO control", "reading": "higher = more nuclear SOX9"}
{"SMILES": "O=C(O)c1cc(/N=N/c2ccc(S(=O)(=O)Nc3ccccn3)cc2)ccc1O", "nuclear SOX9 intensity": "101 % of DMSO and 83.9 % of DMSO"}
{"SMILES": "O=C(O)c1cc(=O)c2ccccc2[nH]1", "nuclear SOX9 intensity": "103 % of DMSO and 99.1 % of DMSO"}
{"SMILES": "O=C(NC1Cc2ccccc2N(C[C@@H](O)CO)C1=O)c1cc2cc(Cl)sc2[nH]1 (stereo partly shown)", "nuclear SOX9 intensity": "85.7 % of DMSO"}
{"SMILES": "Cc1cccc(-c2[nH]ncc2-c2ccnc3ccccc23)n1", "nuclear SOX9 intensity": "99.3 % of DMSO"}
{"SMILES": "CN(C/C=C/c1ccccc1)Cc1cccc2ccccc12", "nuclear SOX9 intensity": "128 % of DMSO"}
{"SMILES": "CC(c1cc2ccccc2s1)N(O)C(N)=O (stereo not shown)", "nuclear SOX9 intensity": "99.1 % of DMSO and 100 % of DMSO and 92.9 % of DMSO"}
{"SMILES": "Clc1cc2cc(c1)-c1cnn3ccc(nc13)NCCOCCO2", "nuclear SOX9 intensity": "90.6 % of DMSO"}
{"SMILES": "O=C(Nc1ccc(CN2CCOCC2)cc1)c1ccc(-c2cccc(Cl)c2)o1", "nuclear SOX9 intensity": "191 % of DMSO"}
{"SMILES": "CCc1c(-c2ccccc2)c(-c2ccccc2)nn1-c1ccccc1-c1cccc(OCC(=O)O)c1", "nuclear SOX9 intensity": "102 % of DMSO"}
{"SMILES": "CN(C)CCOC(c1ccc(Cl)cc1)c1ccccn1 (stereo not shown)", "nuclear SOX9 intensity": "98.2 % of DMSO"}
{"SMILES": "CN1CCC(OC(c2ccccc2)c2ccccc2)CC1", "nuclear SOX9 intensity": "102 % of DMSO"}
{"SMILES": "C#CCCCCCCCCCCCCCCCC(=O)O", "nuclear SOX9 intensity": "109 % of DMSO"}
{"SMILES": "COc1ccc(OCC2c3cc(OC)c(OC)cc3CCN2C(=O)c2cccc(Cl)c2)cc1 (stereo not shown)", "nuclear SOX9 intensity": "118 % of DMSO"}
{"SMILES": "O=S(=O)(c1ccccc1)N(CC(F)(F)F)c1ccc(C(O)(C(F)(F)F)C(F)(F)F)cc1", "nuclear SOX9 intensity": "97 % of DMSO"}
{"SMILES": "CC(C)Oc1ccc(-c2cnc3c(-c4ccnc5ccccc45)cnn3c2)cc1", "nuclear SOX9 intensity": "143 % of DMSO"}
{"SMILES": "CN1CCN2c3ncccc3Cc3ccccc3C2C1 (stereo not shown)", "nuclear SOX9 intensity": "103 % of DMSO and 110 % of DMSO"}
{"data": "Sample 4", "target": "Calcium/calmodulin-dependent protein kinase type II subunit alpha (CAMK2A, Homo sapiens, UniProt Q9UQM7)", "observed": "enzyme activity", "mode": "inhibitor", "tested at": "10 µM", "UniProt Q9UQM7, sequence (whole entry, looked up)": "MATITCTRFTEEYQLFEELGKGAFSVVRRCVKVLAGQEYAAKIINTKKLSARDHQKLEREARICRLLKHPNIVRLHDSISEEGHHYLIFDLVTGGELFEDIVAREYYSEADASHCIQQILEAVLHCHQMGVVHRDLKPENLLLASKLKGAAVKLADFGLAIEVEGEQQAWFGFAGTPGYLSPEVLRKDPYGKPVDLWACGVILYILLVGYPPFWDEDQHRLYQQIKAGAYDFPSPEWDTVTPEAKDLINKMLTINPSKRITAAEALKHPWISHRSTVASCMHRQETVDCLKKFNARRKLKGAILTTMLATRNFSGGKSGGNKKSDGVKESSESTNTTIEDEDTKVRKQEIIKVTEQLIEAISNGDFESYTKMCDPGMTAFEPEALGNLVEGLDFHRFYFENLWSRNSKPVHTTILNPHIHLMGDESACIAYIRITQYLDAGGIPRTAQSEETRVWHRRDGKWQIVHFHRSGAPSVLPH"}
{"Structure (SMILES)": "CCc1c(C)[nH]c2c1C(=O)C(CN1CCOCC1)CC2 (stereo not shown)", "inhibition [%]": 0}
{"Structure (SMILES)": "O=c1[nH]cnc2c1ncn2[C@H]1CC[C@@H](CO)O1", "inhibition [%]": -6}
{"Structure (SMILES)": "O=C(CC(O)(CC(=O)OCc1ccc(O[C@@H]2O[C@H](CO)[C@@H](O)[C@H](O)[C@H]2O)cc1)C(=O)O)OCc1ccc(O[C@@H]2O[C@H](CO)[C@@H](O)[C@H](O)[C@H]2O)cc1", "inhibition [%]": -12}
{"Structure (SMILES)": "C[C@H]1CC[C@@]2(O)C(C)(C)[C@@H]3CC[C@@]2(C)[C@H]1C3", "inhibition [%]": -4}
{"Structure (SMILES)": "CC(C)Cc1ccc(C(C)C(=O)OCc2ccccn2)cc1 (stereo not shown)", "inhibition [%]": -8}
{"Structure (SMILES)": "O=c1[nH]cc(CO)c(=O)[nH]1", "inhibition [%]": 0}
{"Structure (SMILES)": "CC(=O)O[C@H]1CC[C@]2(C)C3=C(CC[C@H]2C1(C)C)[C@]1(C)C[C@@H](O)[C@H]([C@@H](CCC=C(C)C)C(=O)O)[C@@]1(C)CC3", "inhibition [%]": 0}
{"Structure (SMILES)": "COc1c(-c2ccccc2)oc2cc(O)cc(O)c2c1=O", "inhibition [%]": -1}
{"Structure (SMILES)": "CSCC[C@H](N)C(=O)O", "inhibition [%]": 29}
{"Structure (SMILES)": "CC(C)=CCc1c(O)ccc2c1O[C@H](c1ccc(O)cc1)CC2=O", "inhibition [%]": -16}
{"Structure (SMILES)": "COc1cc(CCC(=O)CC(=O)CCc2ccc(O)c(OC)c2)ccc1O", "inhibition [%]": 11}
{"Structure (SMILES)": "CC1(C)CC[C@]2(C(=O)O)CC[C@]3(C)C(=CC[C@@H]4[C@@]5(C)CC[C@H](O[C@@H]6OC[C@H](O)[C@H](O)[C@H]6O)[C@@](C)(CO)[C@@H]5CC[C@]43C)[C@@H]2C1", "inhibition [%]": 8}
{"Structure (SMILES)": "Cc1ccnc(NS(=O)(=O)c2ccc(N)cc2)n1", "inhibition [%]": -5}
{"Structure (SMILES)": "CN(C)/N=N/c1nc[nH]c1C(N)=O", "inhibition [%]": -2}
{"Structure (SMILES)": "C[C@H](CCC(=O)O)[C@H]1CC[C@H]2[C@@H]3[C@H](O)C[C@@H]4CC(=O)CC[C@]4(C)[C@H]3C[C@H](O)[C@]12C", "inhibition [%]": -33}
{"Structure (SMILES)": "COCC(=O)O", "inhibition [%]": 32}
{"Structure (SMILES)": "O=C(c1cc(Cl)c(O)c(Cl)c1)N1CS(=O)(=O)c2ccccc21", "inhibition [%]": 3}
{"Structure (SMILES)": "COc1cc2c(cc1OC)CC(=O)N(CCCN(C)C[C@H]1Cc3cc(OC)c(OC)cc31)CC2", "inhibition [%]": -4}
{"Structure (SMILES)": "COc1cc(O)c(CC=C(C)C)c(O)c1C(=O)/C=C/c1ccc(O)cc1", "inhibition [%]": -2}
{"note": "Repeated from above (sample 1):"}
{"Compound": "CCC(=O)Nc1ccc2ncnc(Nc3cccc(Br)c3)c2c1", "remaining activity": "105%"}
{"Compound": "Cn1cnc2cc3c(Nc4cccc(Br)c4)ncnc3cc21", "remaining activity": "130%"}
{"Compound": "CC(=O)O/N=C1/C(c2c(O)[nH]c3cc(Br)ccc23)=Nc2ccccc21", "remaining activity": "94.9%"}
{"Compound": "COc1ccc(-c2cnc3c(-c4ccsc4)cnn3c2)cc1", "remaining activity": "90.7%"}
{"Compound": "CCN1/C(=C/C(C)=O)Sc2ccc(OC)cc21", "remaining activity": "112%"}
{"Compound": "Cc1ccc(NC(=O)c2ccc(CN3CCN(C)CC3)cc2)cc1Nc1nccc(-c2cccnc2)n1", "remaining activity": "90.8%"}
{"Compound": "C[S+]([O-])c1ccc(-c2nc(-c3ccncc3)c(-c3ccc(F)cc3)[nH]2)cc1 (stereo not shown)", "remaining activity": "92.5%"}
{"Compound": "Nc1[nH]nc2nnc(-c3c(-c4ccccc4)nn4ccccc34)cc12", "remaining activity": "97.7%"}
{"Compound": "Cc1nc(Nc2ncc(C(=O)Nc3c(C)cccc3Cl)s2)cc(N2CCN(CCO)CC2)n1", "remaining activity": "94.9%"}
{"Compound": "CN(C)CCCn1cc(C2=C(c3c[nH]c4ccccc34)C(=O)NC2=O)c2ccccc21", "remaining activity": "93.7%"}
{"Compound": "COc1cc2ncnc(Nc3ccc(OCc4ccccc4)cc3)c2cc1OC", "remaining activity": "100%"}
{"Compound": "Cn1cc(/C=C2\\C(=O)Nc3ccc(S(N)(=O)=O)cc32)c2ccccc21", "remaining activity": "88.3%"}
